# Experimental data collected from several papers.
# Compare with care: the assays were run in different laboratories. ± marks the error that the study gave.
SMILES,tested on,assay,test system,setting,scale,quantity,result
Cl.Cl.Cl.Cl.Cl.Cl.Cl.Cl.Cl.Cl.Cl.Cl.NC[C@@H]1O[C@H](O[C@H]2[C@@H](O)[C@H](O[C@@H]3[C@@H](O)[C@H](N)C[C@H](N)[C@H]3O[C@H]3O[C@H](CN)[C@@H](O)[C@H](O)[C@H]3N)O[C@@H]2Cn2cc(COCCCCCCCCOCc3cn(C[C@H]4O[C@@H](O[C@@H]5[C@@H](O)[C@H](N)C[C@H](N)[C@H]5O[C@H]5O[C@H](CN)[C@@H](O)[C@H](O)[C@H]5N)[C@H](O)[C@@H]4O[C@H]4O[C@@H](CN)[C@@H](O)[C@H](O)[C@H]4N)nn3)nn2)[C@H](N)[C@@H](O)[C@@H]1O,HIV-1 TAR RNA,UV thermal denaturation,,"1 molar equivalents to RNA, pH 6.8, TAR RNA 1 µM per strand","reference: RNA alone, higher is more stabilization",ΔTm,5.4 °C
CC(=O)NCCC[C@@H](NC(=O)[C@@H](N)Cc1ccc(O)cc1)C(=O)N[C@@H](Cc1ccccc1)C(=O)NCC(=O)N[C@@H](Cc1ccc(O)cc1)C(=O)N1CCC[C@H]1C(=O)N[C@@H](CO)C(N)=O,mu opioid receptor,radioligand binding,,,reference: IC50 delta over IC50 mu,selectivity ratio,64
CC(=O)N[C@H]1CNC(=O)c2cc(cn2C)NC(=O)c2cc(cn2C)NC(=O)c2cc(cn2C)NC(=O)c2nc(cn2C)NC(=O)C[C@@H](NC(C)=O)CNC(=O)c2cc(cn2C)NC(=O)c2cc(cn2C)NC(=O)c2cc(cn2C)NC(=O)c2nc(cn2C)NC(=O)C1,androgen response element DNA duplex,DNA binding,,"2 µM, pH 7.0",,Tm,82 °C
CC(C)C[C@@H]1NC(=O)[C@H](CCC(N)=O)NC(=O)[C@H](CCC(=O)O)NC(=O)[C@@H](N)CSSC[C@@H](C(=O)O)NC(=O)[C@H](CC(C)C)NC(=O)[C@H]([C@@H](C)O)NC(=O)[C@H](CCCCN)NC(=O)[C@H](CO)NC(=O)[C@H](CCCCN)NC(=O)[C@H](CCCCN)NC1=O,Mac-1 (CD40L binding),"cell adhesion, flow chamber",CHO expressing Mac-1,shear stress,,IC50,206 nM
Cl.Cl.Cl.Cl.Cl.Cl.Cl.Cl.Cl.Cl.Cl.Cl.NC[C@@H]1O[C@H](O[C@H]2[C@@H](O)[C@H](O[C@@H]3[C@@H](O)[C@H](N)C[C@H](N)[C@H]3O[C@H]3O[C@H](CN)[C@@H](O)[C@H](O)[C@H]3N)O[C@@H]2Cn2cc(CCCCCCc3cn(C[C@H]4O[C@@H](O[C@@H]5[C@@H](O)[C@H](N)C[C@H](N)[C@H]5O[C@H]5O[C@H](CN)[C@@H](O)[C@H](O)[C@H]5N)[C@H](O)[C@@H]4O[C@H]4O[C@@H](CN)[C@@H](O)[C@H](O)[C@H]4N)nn3)nn2)[C@H](N)[C@@H](O)[C@@H]1O,HIV-1 TAR RNA,UV thermal denaturation,,"1 molar equivalents to RNA, pH 6.8, TAR RNA 1 µM per strand",,Tm,74.9 °C
Cc1ncsc1-c1ccc(CNC(=O)[C@@H]2C[C@@H](O)CN2C(=O)[C@@H](NC(=O)Cc2ccc(-c3ccc(CNC(=O)c4cc5c(cc4CS(C)(=O)=O)-c4cn(C)c(=O)c6[nH]cc(c46)CN5c4ncc(F)cc4F)cc3)cc2)C(C)(C)C)cc1,BRD3 (Spodoptera frugiperda),"protein degradation, degrader, targeted LC-MS",Sf9,,,Dmax,> 70%
NC(=O)[C@H](CO)NC(=O)[C@@H]1CCCN1C(=O)[C@H](Cc1ccc(O)cc1)NC(=O)CNC(=O)[C@H](Cc1ccccc1)NC(=O)[C@@H](CCCNC(=O)CBr)NC(=O)[C@@H](N)Cc1ccc(O)cc1,mu opioid receptor,radioligand binding,CHO cells,with: 1 nM [3H]DAMGO,,IC50,0.11 ± 0.02 nM
O=c1c(-c2ccccc2)c(O)c2cc(-c3cccc(-c4ccccc4)c3)cnc2n1O,fowlpox virus resolvase,inhibitor,,concentration not given,,Holliday junction cleavage,inhibited
CNc1ccccc1C(=O)O[C@H]1C[C@H](n2cnc3c(N)ncnc32)O[C@@H]1COP(=O)(O)OP(=O)(O)O,chicken myosin Va G440A FlAsH,,,25 °C,"reference: wild type, slower than wild type",slow phase release rate,10 fold
O=C(CCCCCCC(=O)Nc1ccccc1N=Nc1ccccc1)NO,"class I HDACs, human",enzyme activity,HeLa nuclear extract,,,trans over cis activity ratio,~3
Cl.Cl.Cl.Cl.Cl.Cl.Cl.Cl.Cl.Cl.Cl.Cl.NC[C@@H]1O[C@H](O[C@H]2[C@@H](O)[C@H](O[C@@H]3[C@@H](O)[C@H](N)C[C@H](N)[C@H]3O[C@H]3O[C@H](CN)[C@@H](O)[C@H](O)[C@H]3N)O[C@@H]2Cn2cc(COCCCCCCCCCCCCOCc3cn(C[C@H]4O[C@@H](O[C@@H]5[C@@H](O)[C@H](N)C[C@H](N)[C@H]5O[C@H]5O[C@H](CN)[C@@H](O)[C@H](O)[C@H]5N)[C@H](O)[C@@H]4O[C@H]4O[C@@H](CN)[C@@H](O)[C@H](O)[C@H]4N)nn3)nn2)[C@H](N)[C@@H](O)[C@@H]1O,HIV-1 TAR RNA,UV thermal denaturation,,"1 molar equivalents to RNA, pH 6.8, TAR RNA 1 µM per strand",,Tm,72.1 °C
CC[C@H](C)[C@H](NC(=O)[C@@H](NC(=O)[C@@H](NC(=O)[C@H](CCCNC(=N)N)NC(=O)[C@@H](N)CCCCN)C(C)C)C(C)C)C(=O)N[C@@H](CC(N)=O)C(=O)N[C@@H](CCCCN)C(=O)N[C@@H](CC(=O)O)C(=O)N[C@H](C(=O)O)[C@@H](C)O,Mamu-A2*01:02 (Chinese rhesus macaque),"MHC binding, purified MHC",,,,IC50,> 20000 nM
Cl.Cl.Cl.Cl.Cl.Cl.Cl.Cl.Cl.Cl.Cl.Cl.NC[C@@H]1O[C@H](O[C@H]2[C@@H](O)[C@H](O[C@@H]3[C@@H](O)[C@H](N)C[C@H](N)[C@H]3O[C@H]3O[C@H](CN)[C@@H](O)[C@H](O)[C@H]3N)O[C@@H]2Cn2cc(CCCc3cn(C[C@H]4O[C@@H](O[C@@H]5[C@@H](O)[C@H](N)C[C@H](N)[C@H]5O[C@H]5O[C@H](CN)[C@@H](O)[C@H](O)[C@H]5N)[C@H](O)[C@@H]4O[C@H]4O[C@@H](CN)[C@@H](O)[C@H](O)[C@H]4N)nn3)nn2)[C@H](N)[C@@H](O)[C@@H]1O,HIV-1 TAR RNA,UV thermal denaturation,,"1 molar equivalents to RNA, pH 6.8, TAR RNA 1 µM per strand",,Tm,78.2 °C
N=C(N)Nc1ccc(-c2nc3ccc(-c4ccc5nc(-c6ccc(NC(=N)N)cc6)[nH]c5c4)cc3[nH]2)cc1,r(CUG)12-MBNL1 complex,"complex formation, inhibitor, TR-FRET",,,,IC50,4600 ± 100 nM
CN[C@](C)(C[18F])C(=O)O,MDA-MB-468 tumour model,,"host not given, blood","30 min, tumour-bearing",,tracer uptake,2 %ID/g
CCC(=O)C[C@@H](O)C[C@@H](C)C[C@H](NC(=O)[C@@H]1C[C@H](C)CN1C(=O)/C=C/[C@@H](C)CC)C(=O)N[C@H](C(=O)NC(C)(C)C(=O)N[C@@H](CC(C)C)C(=O)N[C@@H](CC(C)C)C(=O)NC(C)(C)C(=O)NC(C)(C)C(=O)NCCC(=O)N[C@@H](C)CNC)[C@H](O)C(C)C,mTORC1,"inhibitor, immunoblot",MDA-MB-453,"100 nM, 2 h",,phospho-RPS6 level,decreased
COC[C@@H](NC(C)=O)C(=O)NCc1ccc(OCc2ccccc2F)cc1,rat voltage-gated sodium channels,whole-cell patch clamp,rat embryonic cortical neurons,10 µM,,V1/2 of activation,-37 ± 4.4 mV
CN(CCCNC(=O)c1cccc(C(=O)O)c1)CCCNC(=O)c1cc(NC(=O)c2cc(NC(=O)c3cc(NC(=O)c4nc(NC(=O)C[C@@H](N)CNC(=O)c5cc(NC(=O)c6cc(NC(=O)c7cc(NC(=O)c8nccn8C)cn7C)cn6C)cn5C)cn4C)cn3C)cn2C)cn1C,androgen response element DNA duplex,DNA binding,,"2 µM, pH 7.0",reference: DNA alone,ΔTm,18.4 °C
C[C@H](N)C(=O)N[C@@H](CO)C(=O)N[C@@H](C)C(=O)N[C@H]1CSC(=O)[C@H](Cc2ccccc2)NC(=O)[C@H](Cc2ccc(O)cc2)NC(=O)[C@H](C)NC(=O)[C@H](C)NC1=O,AgrC-III,"inhibitor, GFP reporter","Staphylococcus epidermidis, agr group-III reporter",100 nM,,AgrC-III activity,inhibited
CCCCCCCC/C=C\CCCCCCCC(=O)Oc1cccc(SSC[C@H](N)C(=O)N[C@@H](Cc2ccc(O)cc2)C(=O)NCC(=O)N[C@@H](C)C(=O)N[C@@H](CCCCN)C(N)=O)c1,rabbit mitochondrial calpain,enzyme activity,renal proximal tubule cells,"10 µM, 60 min",,inhibition,~40%
N[C@H](C(=O)N1CCCC1)C1CCN(c2nccc3c(-c4ncc(Cl)cc4Cl)cccc23)CC1,peptidylarginine deiminase (human),inhibitor,human neutrophils,"up to 10 µM, with: ionomycin 5 µM",,protein citrullination,inhibited
O=C1c2cc(F)ccc2N(Cc2ccccc2)C12CCCC2,butyrylcholinesterase,,,10 µM,,remaining activity,52.8 ± 3.25%
Cc1cc(Nc2nc(C[C@@]3(C(=O)O)CCN(Cc4cccc(Cl)c4F)[C@H](C)C3)cc(C)c2F)[nH]n1,"AURKA (Thr288 phosphorylation), mouse","AURKA phosphorylation, inhibitor, measured: phospho-AURKA Thr288","mouse, NCI-H446 xenograft, tumour","oral, 5 mg/kg single dose, 1 h",,inhibition,73%
CC(=O)NCCCC[C@@H](NC(=O)[C@@H](N)Cc1ccc(O)cc1)C(=O)N[C@@H](Cc1ccccc1)C(=O)NCC(=O)N[C@@H](Cc1ccc(O)cc1)C(=O)N1CCC[C@H]1C(=O)N[C@@H](CO)C(N)=O,mu opioid receptor,radioligand binding,,,reference: IC50 delta over IC50 mu,selectivity ratio,15
N#Cc1ccc(CN2c3ccccc3C(=O)C23CCCC3)cc1,butyrylcholinesterase,,,10 µM,,remaining activity,88.4 ± 0.89%
CCN(CC)CCCC(C)Nc1cc[n+]([Ru-]2[NH2+]CC[NH2+]2)c2cc(Cl)ccc12.Cc1ccc(C(C)C)cc1.F[P-](F)(F)(F)(F)F.F[P-](F)(F)(F)(F)F (stereo not shown),calf thymus DNA,thermal denaturation,,"0.5 equivalents per DNA, 1 h, pH 7.39, 25 °C, 50 mM NaClO4",,delta Tm,1.6 °C
O=C1c2ccccc2N(Cc2ccccc2)C12CCCC2,butyrylcholinesterase,,,10 µM,,remaining activity,75.9 ± 1.27%
CC[C@H](C)[C@@H]1NC(=O)[C@H](Cc2ccc(O)cc2)NC(=O)[C@@H](N)CSSC[C@@H](C(=O)N2CCC[C@H]2C(=O)N2CCC[C@H]2C(=O)NCC(N)=O)NC(=O)[C@H](CC(N)=O)NC(=O)[C@H](CCC(N)=O)NC1=O,titi monkey oxytocin receptor,"membrane hyperpolarization, agonist",CHO,,reference: compound over vasopressin,potency ratio,~10
NC(=O)[C@H](CO)NC(=O)[C@@H]1CCCN1C(=O)[C@H](Cc1ccc(O)cc1)NC(=O)CNC(=O)[C@H](Cc1ccccc1)NC(=O)[C@@H](CCCCNC(=O)CBr)NC(=O)[C@@H](N)Cc1ccc(O)cc1,mu opioid receptor,radioligand binding,,,reference: IC50 delta over IC50 mu,selectivity ratio,73
Cn1cc2cc1C(=O)NC[C@H](N)CC(=O)Nc1cn(C)c(n1)C(=O)Nc1cc(n(C)c1)C(=O)Nc1cc(n(C)c1)C(=O)Nc1cc(n(C)c1)C(=O)NC[C@H](N)CC(=O)Nc1cn(C)c(n1)C(=O)Nc1cc(n(C)c1)C(=O)Nc1cc(n(C)c1)C(=O)N2,androgen response element DNA duplex,DNA binding,,"2 µM, pH 7.0",reference: DNA alone,ΔTm,23.6 °C
COC[C@@H](NC(C)=O)C(=O)NCc1ccc(OCc2cccc(Cl)c2)cc1,rat voltage-gated sodium channels,whole-cell patch clamp,rat embryonic cortical neurons,10 µM,,V1/2 of activation,-40.4 ± 6.8 mV

# A few entries again:
SMILES,tested on,assay,test system,setting,scale,quantity,result
CC(=O)N[C@H]1CNC(=O)c2cc(cn2C)NC(=O)c2cc(cn2C)NC(=O)c2cc(cn2C)NC(=O)c2nc(cn2C)NC(=O)C[C@@H](NC(C)=O)CNC(=O)c2cc(cn2C)NC(=O)c2cc(cn2C)NC(=O)c2cc(cn2C)NC(=O)c2nc(cn2C)NC(=O)C1,androgen response element DNA duplex,DNA binding,,"2 µM, pH 7.0",,Tm,82 °C
N[C@H](C(=O)N1CCCC1)C1CCN(c2nccc3c(-c4ncc(Cl)cc4Cl)cccc23)CC1,peptidylarginine deiminase (human),inhibitor,human neutrophils,"up to 10 µM, with: ionomycin 5 µM",,protein citrullination,inhibited
Cl.Cl.Cl.Cl.Cl.Cl.Cl.Cl.Cl.Cl.Cl.Cl.NC[C@@H]1O[C@H](O[C@H]2[C@@H](O)[C@H](O[C@@H]3[C@@H](O)[C@H](N)C[C@H](N)[C@H]3O[C@H]3O[C@H](CN)[C@@H](O)[C@H](O)[C@H]3N)O[C@@H]2Cn2cc(COCCCCCCCCOCc3cn(C[C@H]4O[C@@H](O[C@@H]5[C@@H](O)[C@H](N)C[C@H](N)[C@H]5O[C@H]5O[C@H](CN)[C@@H](O)[C@H](O)[C@H]5N)[C@H](O)[C@@H]4O[C@H]4O[C@@H](CN)[C@@H](O)[C@H](O)[C@H]4N)nn3)nn2)[C@H](N)[C@@H](O)[C@@H]1O,HIV-1 TAR RNA,UV thermal denaturation,,"1 molar equivalents to RNA, pH 6.8, TAR RNA 1 µM per strand","reference: RNA alone, higher is more stabilization",ΔTm,5.4 °C
